Results from different studies.
Compare with care: the assays were run in different laboratories. ± gives the spread as reported.

`Cl.[2H]C([2H])([2H])CC(=O)c1cnc(NC(=O)C2CC2)cc1Nc1cccc(-c2ncn(C([2H])([2H])[2H])n2)c1OC` has a renal clearance of 3.4 mL/min (human, fasted; oral, 20 mg, once daily multiple dose, mean incl. outlier).
For `CC(C)n1c(C2CCNCC2)nc2c([N+](=O)[O-])c(Br)c(Br)cc21`, the renal clearance was 11.8 mL/min (human; oral, 100 mg single dose, mean).
With `CN(C)C(=O)c1cc2cnc(Nc3ccc(N4CCNCC4)cn3)nc2n1C1CCCC1` the renal clearance was 18.7 mL/min (human, severe renal impairment, plasma and urine; oral, 400 mg, geometric mean).
`Cn1cc(-c2cn3nccc3c(-c3cnn([C@]4(CC#N)C[C@@H](C#N)C4)c3)n2)cn1` gave a renal clearance of 21.7 mL/min (healthy human; 200 mg twice daily, day 10).
The renal clearance of `CC(=O)N(C)[C@H]1CCN(C(=O)c2cnc3c(c2)C[C@](C)(c2ccc(F)cc2)N3)C1` is reported as 168 mL/min (human, male, urine; oral, 60 mg once daily, 0-48 h, steady state, geometric mean).
`CN[C@@H]1COc2c(S(=O)(=O)NC(=O)Nc3c4c(cc5c3CCC5)CCC4)cnn2C1` gave a renal clearance of 5.67 mL/min (human, urine; oral, 900 mg twice daily, 0-12 h, day 7).
`Cc1cc(-c2nccc3c2ccn3CC(=O)Nc2ccc(-c3cnccn3)cn2)ccn1` has a renal clearance of 11.9 mL/min (human, plasma and urine; oral, 40 mg single dose, geometric mean).
For `C[C@@H](Oc1ccc(S(C)(=O)=O)cc1C(=O)N1C[C@@H]2C[C@]2(c2cc(C(F)(F)F)on2)C1)C(F)(F)F`, the renal clearance was 5.64 mL/min (young healthy humans, plasma and urine; oral, 50 mg, 0 to 24 h, single dose).
`C[C@@H](Cn1ccc(-c2ccc(C#N)c(Cl)c2)n1)NC(=O)c1cc([C@@H](C)O)[nH]n1` has a renal clearance of 10.3 mL/min (human, fasted, plasma; oral solution, 300 mg 14C-darolutamide, geometric mean).
For `O=C(c1nc2n(n1)[C@H](c1ccccc1)C[C@@H]2F)C1CC1`, the renal clearance was 0.074 to 0.265 mL/min (human; 5 mg single dose).
`NC[C@@]1(CC(=O)O)[C@@H]2CC[C@H]3C[C@@H]2[C@@H]1C3` gave a renal clearance of 62.2 ± 17.2 mL/min (human, moderate renal impairment, urine; oral, 20 mg single dose).

For quick reference, copied from above:
`Cl.[2H]C([2H])([2H])CC(=O)c1cnc(NC(=O)C2CC2)cc1Nc1cccc(-c2ncn(C([2H])([2H])[2H])n2)c1OC` has a renal clearance of 3.4 mL/min (human, fasted; oral, 20 mg, once daily multiple dose, mean incl. outlier).
